{"data": "Measurements from different studies", "note": "A part holds a random share of what one study measured. Substitutions count along the parent as printed."}
{"data": "Series 1", "target": "Fragile X messenger ribonucleoprotein 1, C-terminal low-complexity region (Fmr1, Mus musculus, UniProt P35922)", "method": "RNA Bind-n-Seq", "form": "RNA", "medium": "in vitro", "concentration": "200 nM", "setting": "whole 134-nt RNA, ends assumed", "with": "150 mM LiCl", "baseline": "input library", "reading": "higher = stronger binding", "all molecules": "7-deaza-guanosine replaces G"}
{"Strand": "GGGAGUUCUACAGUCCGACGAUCAGUCACUUUUUAAUUUUAUUUAUUAUUUCUCCUCUUAGACCGCAGGAUGGAAACAAGCCCACUGAGACUAGUCAACCUCAAUCUAGCACAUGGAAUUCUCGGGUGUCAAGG", "log2 enrichment": 1.87}
{"Strand": "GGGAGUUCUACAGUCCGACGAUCUGGGAGGUGGAUUUUGUUUAUUUUUUUAGCUCAUUUCCAGGGGUGGGUAUUUUUUUUUAAUAUGUGUCAUGAAUAAAGUUGUUUUUGAAAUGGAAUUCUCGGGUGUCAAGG", "log2 enrichment": 0.578}
{"Strand": "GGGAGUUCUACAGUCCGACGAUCGUCCUGUGCUACACAUCGUAUGUACCGAAUCGGAAAAAAGGAAAAAAGGGAAAAAAGGAAAGUAUUAUGUUACGCCGUUCGGAUCUGCACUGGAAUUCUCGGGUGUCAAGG", "log2 enrichment": -0.621}
{"Strand": "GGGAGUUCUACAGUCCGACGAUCCAAGUCCUGUGCUACACAUCGUAUGUACCGAAUCGGGAAAGGGAGGGAAAAAGGGAAAGUAUUAUGUUACGCCGUUCGGAUCUGCACUUCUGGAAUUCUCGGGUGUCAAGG", "log2 enrichment": -1.09}
{"Strand": "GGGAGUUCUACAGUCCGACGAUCAGUCCUGUGCUACACAUCGUAUGUACCGAAUCGGGUUUUUGGGUGGGAAAAAAAGGGAAAGUAUUAUGUUACGCCGUUCGGAUCUGCACUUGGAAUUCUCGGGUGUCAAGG", "log2 enrichment": -1.8}
{"Strand": "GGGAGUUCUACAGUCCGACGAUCAAGUCCUGUGCUACACAUCGUAUGUACCGAAUCGGGGUUUGGGUUUGGGUUUGGGGAAAGUAUUAUGUUACGCCGUUCGGAUCUGCACUUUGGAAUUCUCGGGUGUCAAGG", "log2 enrichment": -1.13}
{"Strand": "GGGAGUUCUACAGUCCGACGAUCUAACUUUAGAGGAGGAUCUGAUGGAUAUGGCAGUGGACGUGGAUUUGGGGAUGGCUAUAAUGGGAAUGGAGGAGGACCUGGAGGUGGCAAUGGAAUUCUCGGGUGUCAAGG", "log2 enrichment": 0.734}
{"Strand": "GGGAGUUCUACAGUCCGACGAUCUUCCUCAAGUCCUGUGCUACACAUCGUAUGUACCGAAUCGGUGGUGGAGGAAAGUAUUAUGUUACGCCGUUCGGAUCUGCACUUCCAGCAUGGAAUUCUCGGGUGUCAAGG", "log2 enrichment": -0.894}
{"Strand": "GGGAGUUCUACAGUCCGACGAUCCACAGACAACACGCACCCACACAGACACAGAGGGAAGGCGUUGGGAUGGGGACAGGGUGCACAGCAGGGCGGGGUAGGACCCCAGCCCCUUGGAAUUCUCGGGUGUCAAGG", "log2 enrichment": -1.33}
{"Strand": "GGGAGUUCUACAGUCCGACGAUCCACAGACAACACGCACCCACACAGACACAGAGGGAAGGGGUUGGGAUGGGGACAGGGUGCACAGCAGGGAGGGGUAGGACCCCAGCCCCUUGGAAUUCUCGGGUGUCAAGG", "log2 enrichment": 0.86}
{"data": "Series 2", "target": "RING finger protein unkempt homolog, zinc fingers 1-6, GST-SBP tag (UNK, Homo sapiens, UniProt Q9C0B0, residues 30-357)", "method": "RNA Bind-n-Seq", "form": "RNA", "medium": "in vitro", "concentration": "not given", "setting": "RNA with constant flanks, human-mouse chimeric sites, ends assumed", "baseline": "input RNA pool", "reading": "higher = stronger binding", "sequence of UniProt Q9C0B0 (30-357, looked up)": "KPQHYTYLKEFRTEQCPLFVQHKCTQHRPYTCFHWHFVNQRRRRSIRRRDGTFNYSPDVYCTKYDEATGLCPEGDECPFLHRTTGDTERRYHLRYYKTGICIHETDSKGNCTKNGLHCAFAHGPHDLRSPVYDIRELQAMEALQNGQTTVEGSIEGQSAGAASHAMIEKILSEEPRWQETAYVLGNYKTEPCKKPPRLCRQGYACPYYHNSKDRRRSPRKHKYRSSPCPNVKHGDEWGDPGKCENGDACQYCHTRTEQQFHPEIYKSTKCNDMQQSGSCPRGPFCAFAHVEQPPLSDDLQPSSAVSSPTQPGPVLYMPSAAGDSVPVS"}
{"Strand": "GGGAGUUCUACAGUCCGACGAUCUUACCCGAAAAUGAAGAUGAGCUGGAGAGCACCAACAGACGCUAUACCAAGAGGGACUGCAGCACUUUCCUCAGAACUAGUGAGACGGGCAUCGUGGACCAGGUCAUGGUCACUCUCAACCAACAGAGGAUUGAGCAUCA", "bound/input enrichment [ratio]": 0.28}
{"Strand": "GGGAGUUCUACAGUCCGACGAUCAAUUUCCUGUCAUACUUUUUAGACAUUCACAUCAGACUUACAGAGCAUUGGGCCUCUUUCUAGGUUUGUGUUAUUUCUAAGCCUUUUAUAUGAUCAAAUGAGAACACUGCUUAACUAAUGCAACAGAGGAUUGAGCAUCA", "bound/input enrichment [ratio]": 0.489}
{"Strand": "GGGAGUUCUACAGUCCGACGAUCUCAUUUUUCUCUUUUCUGAUCGUCAGGUAGGAAAAGCCUAAAGAUUAGGUUGUAAGAAAAAUAGAAGCCAUGUUUCGAAGACCUGUGUUACAGGUAUUUCGUCAGUUUGUAAGACAUGAGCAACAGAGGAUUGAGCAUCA", "bound/input enrichment [ratio]": 9.98}
{"Strand": "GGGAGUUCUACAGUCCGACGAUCCACAGAGGAGAUCUGCUGUUCCUCACAAAUUUCCGGGAGGACCCCAUCAGAGCUGGUGAAAUAGUUGUUUUUAAGGUUGAAGGAAGAGACAUUCCGAUAGUUCACAGAGUAAUCAAGGUUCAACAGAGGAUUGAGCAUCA", "bound/input enrichment [ratio]": 4.11}
{"Strand": "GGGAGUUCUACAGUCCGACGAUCAUGGAACAUUUCGAUGCGUCACUCAGUACCUAUUUCAAGGCCUUCCUGGGCCCCCGAGAUACUAGAGUAAAAGGAUGGUUCCUCCUGGACAAUUACAUCCCUACGUUUGUCUGUUCUGUUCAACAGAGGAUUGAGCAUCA", "bound/input enrichment [ratio]": 0.109}
{"Strand": "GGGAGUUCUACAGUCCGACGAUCAAAGAGAAAGCUAAAACACUAAUAGAGAAGAGGAUUGGCAAAGAGAAUUUCAUAGAGGAAACUAGGAUUAUUAGCAAACAUGAGUUAUAUUCCAGAGCGUCUCAGAAACCCCAGCCAAACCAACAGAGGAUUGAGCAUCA", "bound/input enrichment [ratio]": 4.15}
{"Strand": "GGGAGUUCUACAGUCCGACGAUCAUAGAUGAAAUUGAUGUGGACCAGGAAGGAAUUGCUGAAAUGAUCCUGGAUGAAAAUGCUAUUGCUCAGGUCCCACGCCCUGGAACGUCUUUGAAACUCCCUGGCACUAACCAAACAGGACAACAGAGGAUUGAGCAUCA", "bound/input enrichment [ratio]": 0.427}
{"Strand": "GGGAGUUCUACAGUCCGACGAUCCUGAGGAUACCACUGAAGAGACCUUAAAAGAAUCAUUUGAGGGCUCUGUUCGUGCAAAGGAUAGUUAUGAUCGGGAAAACUGGGUCCCCAAAGGGUUUGGUUUUGUAGACUUUAAUAGUGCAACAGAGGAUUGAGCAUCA", "bound/input enrichment [ratio]": 0.751}
{"Strand": "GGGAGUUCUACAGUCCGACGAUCGGUGGGGUGGUCAUUGCCGUUUGAGCUGCUGAUUUUCAUGAGUCGCCUUCAAAACUCUCGCAUAGGGUUGACACUGUGGGGGGGUGGGGGAUCCAGCUUAUUCUUUUAUUUUCAAGUCCACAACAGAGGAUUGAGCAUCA", "bound/input enrichment [ratio]": 0.364}
{"Strand": "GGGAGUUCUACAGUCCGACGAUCUUUGUUUUUAUGCUAAGCACACGUGCUGGUGGUCUGGGCAUCAAUCUUGCGACUGCUGAUGUAGUCAUUUUAUAUGACUCAGAUUGGAAUCCGCAAGUUGAUCUUCAGGCUAUGGACCGUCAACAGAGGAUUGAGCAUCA", "bound/input enrichment [ratio]": 0.116}
{"Strand": "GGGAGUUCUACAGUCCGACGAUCCCACCAGGAUCCCAGAAACAUGACCCUUGCUGCCUACAAAGAGAAGAUGAAGGAGCUCCCGCUGGUGUCCUUGUUCUGCUCCUGCUUCUUGUCUGAUCCCCUGAAUAAGUCGUCCUACAACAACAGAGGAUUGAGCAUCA", "bound/input enrichment [ratio]": 0.237}
{"data": "Series 3", "target": "CCNB1, cyclin fold, Cln2 fusion (human)", "method": "yeast growth competition, sequencing", "medium": "yeast", "setting": "weak parent motif", "baseline": "not given", "reading": "higher = stronger binding", "starting sequence": "SCAPER docking peptide (human); SNARRSLNFGGST"}
{"Change": "SNARRSLNFGWST [G11W]", "normalised enrichment score": 0.484}
{"Change": "SNARRSLNFAGST [G10A]", "normalised enrichment score": 0.473}
{"Change": "SNARRSLNFGGSP [T13P]", "normalised enrichment score": 0.572}
{"Change": "SNARRSLNFGGSV [T13V]", "normalised enrichment score": 0.917}
{"Change": "LNARRSLNFGGST [S1L]", "normalised enrichment score": 0.799}
{"Change": "SNARRSGNFGGST [L7G]", "normalised enrichment score": 0.0891}
{"Change": "SNARRSLNFGRST [G11R]", "normalised enrichment score": -0.353}
{"Change": "SNARGSLNFGGST [R5G]", "normalised enrichment score": 0.158}
{"data": "Mixed results"}
{"Molecule": "PhoQ, residues 284 288 289 292 302 303 AANNSF", "target": "PhoP, residues 12 14 15 18 19 VHTVL (Escherichia coli, UniProt P23836)", "assay": "Sort-seq, refers to: YFP reporter", "test system": "E. coli", "setting": "PhoQ-PhoP variant library, with: 10 µM Mg2+", "how to read": "baseline: high Mg2+ state, higher = stronger signaling", "quantity": "fold induction", "value": 8.47}
{"note": "Some of these lines once more (series 2):"}
{"Strand": "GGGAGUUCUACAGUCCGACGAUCUCAUUUUUCUCUUUUCUGAUCGUCAGGUAGGAAAAGCCUAAAGAUUAGGUUGUAAGAAAAAUAGAAGCCAUGUUUCGAAGACCUGUGUUACAGGUAUUUCGUCAGUUUGUAAGACAUGAGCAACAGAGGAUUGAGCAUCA", "bound/input enrichment [ratio]": 9.98}
{"Strand": "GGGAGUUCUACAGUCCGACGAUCCACAGAGGAGAUCUGCUGUUCCUCACAAAUUUCCGGGAGGACCCCAUCAGAGCUGGUGAAAUAGUUGUUUUUAAGGUUGAAGGAAGAGACAUUCCGAUAGUUCACAGAGUAAUCAAGGUUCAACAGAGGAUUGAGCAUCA", "bound/input enrichment [ratio]": 4.11}
{"Strand": "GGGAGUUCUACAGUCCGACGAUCAUGGAACAUUUCGAUGCGUCACUCAGUACCUAUUUCAAGGCCUUCCUGGGCCCCCGAGAUACUAGAGUAAAAGGAUGGUUCCUCCUGGACAAUUACAUCCCUACGUUUGUCUGUUCUGUUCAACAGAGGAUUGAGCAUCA", "bound/input enrichment [ratio]": 0.109}
{"Strand": "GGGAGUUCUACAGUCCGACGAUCAAAGAGAAAGCUAAAACACUAAUAGAGAAGAGGAUUGGCAAAGAGAAUUUCAUAGAGGAAACUAGGAUUAUUAGCAAACAUGAGUUAUAUUCCAGAGCGUCUCAGAAACCCCAGCCAAACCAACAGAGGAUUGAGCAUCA", "bound/input enrichment [ratio]": 4.15}
